Measurements collected from several papers.
Parts stem from different laboratories: compare values within a part only.

Series 1
Target: RING finger protein unkempt homolog, zinc fingers 1-6, GST-SBP tag (UNK, Homo sapiens, UniProt Q9C0B0, residues 30-357)
Method: RNA Bind-n-Seq
Molecule type: RNA
Sample: in vitro
Tested at: not given
Setting: RNA with constant flanks, human-mouse chimeric sites, ends assumed
Relative to: input RNA pool
Direction: higher = stronger binding
Constant ends, left off below: GGGAGUUCUACAGUCCGACGAUC … CAACAGAGGAUUGAGCAUCA
Target sequence (chain): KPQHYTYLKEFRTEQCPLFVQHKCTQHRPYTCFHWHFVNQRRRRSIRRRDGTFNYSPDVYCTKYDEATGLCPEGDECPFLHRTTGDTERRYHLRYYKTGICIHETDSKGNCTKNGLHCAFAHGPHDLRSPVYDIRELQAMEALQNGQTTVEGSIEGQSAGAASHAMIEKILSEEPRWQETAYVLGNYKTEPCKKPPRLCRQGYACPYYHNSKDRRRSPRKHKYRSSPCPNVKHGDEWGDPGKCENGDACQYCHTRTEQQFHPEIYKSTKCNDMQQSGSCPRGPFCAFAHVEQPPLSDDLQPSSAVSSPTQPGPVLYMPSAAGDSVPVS
With `CUGAGGAUACCACUGAAGAGACCUUAAAAGGAGUCAUUGAGGGCUCUGUUCGUGCAAAGGAUAGUUAUGAUCGGGAAACUGGUUCUUCCAAAGGGUUUGGUUUUGUAGACUUUAAUAGUG` the bound/input enrichment was 1.03 ratio.
`UUGUCGAAGACUCAACGAAAGACUCCAACGGUUAUUCAUAAACAUUAUCAAAUUCAUCGGAUUCGACAUUUUUAUAUGAGAAAAGUCAAAUUUACUCAACAGAAUUACCAUGACAGACUG` gave a bound/input enrichment of 0.161 ratio.
For `CGCUGGCGUUGAACUGUGGACUCUGAUGGCCUCCAUCUCUCAGGCACGUGUGCCUUCUCUUAGUCCCUGUUUUCGGGAUGUUAUGAAUCUCAGUACUGUGGUUUGAAAGCACCAGCUUUG`, the bound/input enrichment was 0.172 ratio.
The bound/input enrichment of `UCAGGAACCCAGACAAACAUGAAUGUAAAUGAAGUCAUUAGCAACAGAGCAAUUGAAAUGUUAGGAGGUGAACUUGGCAGCAAGAAGCCUGUGCAUCCCAAUGAUCAUGUUAAUAAAAGC` is reported as 0.277 ratio.
For `CCCUCCCCGGGCCACCCACCCCUCCCGGCUCCCCGCCGAGAUCCAGGUUUCUUCUGUUUUCAUAGCAAAUAAGAAAAAUGUUCUACGCACAUUUUGUUCUCAGUAAACGAGGGCCUCUGG`, the bound/input enrichment was 2.64 ratio.
The bound/input enrichment of `UGACAAGGGCACUGCAGAGCCAUGCCUUUCCUUGACAUACAGAAAAAGCUGGGCAUCAGCCUGGACCGAUGGUUGACGUUCCUAAGCGCAGAACAGCCCUACAAGAUCGCCGCUCGGUGC` is reported as 0.068 ratio.
With `GCGGCAGAAUCAUGGAGGACAUAAUGCAGCUCCCCAAAGCGCGCGUCAACGCCAGCAUGUUACCACAGUAUAUCGACCGGCCCGUGUGCUUCGUAGGGAGGCUGGAAAAGAUUCAUCCCA` the bound/input enrichment was 0.189 ratio.
The bound/input enrichment of `GGACAUCUUGUCAGGAUUUAUGUUCCUAAAAACGUAGUGAACACUCUGAUACACUUCAUCUGCUUGUACAUCUGUAUGAUAGAGAAAUGUAAAUAUGUUAAUCCAAGCAAUGUGUCACUU` is reported as 0.206 ratio.
The bound/input enrichment of `GACAGUGAAGGCCCACUGUGUGAAUUGCUUUUUUUCUUCCUGACUGCAAUCUUCCAGGCAAUAGCUGAAGAAGAAGAGGAAGUAGCCAAAGAGCAGAUAACUGAUGCUGACACCAAAGAU` is reported as 0.0776 ratio.
`GCUCUUGGGAAUGUAAUCAGCGCCUUGGGGGACAAGAGCAAGAGAGCCACCCAUGUCCCUUACAGAGACUCUAAGCUAACAAGACUAUUGCAGGAUUCCCUUGGGGGUAACAGCCAAACC` has a bound/input enrichment of 0.205 ratio.
The bound/input enrichment of `GAGCGUCUUGCCCGCACUGGGAUCAUCGUGACCACUAGUGAGGCUGUCCUCCUACAGCUGGUGGCUGACAAAGACCAUCCAAAAUUCAAGGAAAUUCAGAAUCUAAUUAAGGCGAGUGCC` is reported as 0.202 ratio.

Series 2
Target: Histone acetyltransferase KAT6A, winged helix 2, GST fusion (KAT6A, Homo sapiens, UniProt Q92794, residues 85-181)
Method: protein binding microarray
Molecule type: double-stranded DNA, one strand shown
Sample: in vitro
Tested at: not given
Setting: 8-mer, flanks averaged, mean of 2 arrays, mostly near background
Relative to: not given
Direction: higher = stronger binding
Target sequence (chain): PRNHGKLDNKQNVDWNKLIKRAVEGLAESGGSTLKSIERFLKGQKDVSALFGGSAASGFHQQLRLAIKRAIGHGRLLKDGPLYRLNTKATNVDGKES
With `GGCTTACA` the E-score was -0.0614.
With `ACAGTCCA` the E-score was -0.151.
The E-score of `CGGAGTAG` is reported as 0.128.
The E-score of `ATAACACG` is reported as -0.104.
`CCTTTAAG` gave an E-score of -0.0514.
For `GATTCCAA`, the E-score was 0.0881.
`TCCTTCCA` gave an E-score of -0.146.
With `CCGTCCCA` the E-score was 0.0374.
For `ATTATAAA`, the E-score was 0.0509.
The E-score of `AACCTAGC` is reported as -0.00471.
For `ATAACGGC`, the E-score was 0.165.
With `CCTTTTCC` the E-score was -0.0318.
The E-score of `CCTGACAC` is reported as -0.0284.
With `CACCCGTA` the E-score was -0.121.
The E-score of `GCTCAAGA` is reported as -0.0773.
For `AACTCACT`, the E-score was 0.0244.
For `ACACGCCC`, the E-score was 0.0474.
For `AGAGGGCG`, the E-score was 0.14.
`TATATTCA` has an E-score of -0.0173.
`TGGTCACA` has an E-score of 0.144.
`AACTCGCA` has an E-score of 0.146.
With `TCACGAAA` the E-score was 0.0732.
`AATAGTAC` has an E-score of -0.0813.
`ATGGGTAA` has an E-score of 0.0583.
For `AACGTAAA`, the E-score was -0.153.

Series 3
Target: Sal-like protein 4, full length isoform B (SALL4, Homo sapiens, UniProt Q9UJQ4-2, residues 1-616)
Method: universal PBM
Molecule type: double-stranded DNA, one strand shown
Sample: in vitro
Tested at: not given
Setting: 8-mer, flanks averaged, mean of replicates
Direction: higher = stronger binding
Construct (chain): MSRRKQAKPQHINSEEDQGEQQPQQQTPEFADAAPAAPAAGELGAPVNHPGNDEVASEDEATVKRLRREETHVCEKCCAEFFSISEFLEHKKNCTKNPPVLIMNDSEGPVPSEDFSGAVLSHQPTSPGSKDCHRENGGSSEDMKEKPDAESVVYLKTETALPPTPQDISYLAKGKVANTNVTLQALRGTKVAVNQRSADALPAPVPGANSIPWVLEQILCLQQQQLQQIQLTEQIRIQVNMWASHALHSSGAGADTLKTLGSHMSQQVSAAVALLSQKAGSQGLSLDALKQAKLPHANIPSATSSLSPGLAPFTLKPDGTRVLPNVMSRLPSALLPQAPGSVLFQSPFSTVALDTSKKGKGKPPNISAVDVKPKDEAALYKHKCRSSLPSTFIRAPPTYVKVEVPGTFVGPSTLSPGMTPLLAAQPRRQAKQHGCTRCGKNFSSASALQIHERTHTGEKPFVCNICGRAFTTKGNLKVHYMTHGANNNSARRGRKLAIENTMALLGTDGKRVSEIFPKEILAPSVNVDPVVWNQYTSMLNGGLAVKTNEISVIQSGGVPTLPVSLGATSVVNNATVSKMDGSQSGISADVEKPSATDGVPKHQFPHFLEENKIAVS
For `GGACAGAA`, the E-score was 0.0318.
`AGACCGCA` has an E-score of -0.184.
`ATAAACGC` gave an E-score of 0.221.
`AAGCCCCT` has an E-score of -0.158.
`CACGTCCC` has an E-score of -0.177.
`GGAGCTCC` gave an E-score of -0.292.
The E-score of `CCACCCTA` is reported as -0.0871.
With `ATACTCAG` the E-score was 0.0877.
For `GAGCCGTA`, the E-score was -0.0159.
With `GCCAGCCC` the E-score was -0.354.
`CTACTCGA` has an E-score of 0.0264.
`TATTGGAA` has an E-score of 0.295.
`TCCGCGAA` gave an E-score of -0.0382.
The E-score of `CAGTGATG` is reported as 0.0768.
With `ACCCTATC` the E-score was -0.0239.
`AGACCGTA` gave an E-score of -0.0256.
`CTAGGAAG` gave an E-score of -0.0845.
`GCGTGTGA` has an E-score of -0.0358.
`GAGGAATC` has an E-score of -0.137.
`CCGTGCAG` has an E-score of -0.144.
`CGTAAAAC` gave an E-score of 0.0508.
`ATAGAGGG` gave an E-score of 0.118.
For `AGCCTACG`, the E-score was -0.0985.
The E-score of `CCTAAGGC` is reported as -0.294.
The E-score of `GGGCACCC` is reported as -0.265.

Series 4
Target: RNA binding protein fox-1 homolog 2, RRM domain, GST-SBP tag (RBFOX2, Homo sapiens, UniProt O43251-10, residues 100-194)
Method: RNA Bind-n-Seq
Molecule type: RNA
Sample: in vitro
Tested at: 365 nM
Setting: natural RNA segment, single round, ends assumed
Relative to: no-protein control
Direction: higher = stronger binding
Constant ends, left off below: GGGAGUUCUACAGUCCGACGAUC … UGGAAUUCUCGGGUGCCAA
Target sequence (chain): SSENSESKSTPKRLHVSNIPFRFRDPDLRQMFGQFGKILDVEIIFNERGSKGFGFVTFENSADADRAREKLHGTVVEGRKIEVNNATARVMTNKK
`GGCUCAGUCCUGUGUGGUGCCCAUGAUCCUUCUGGUGGGGGAAGAGUUUAAGUUAUAGGGCAUUUGGCUCAAAUUUUAAAAGGCCUUUUGUUUACCUAUAUUUCUGGAGG`: “RBNS enrichment (R)” 0.773.
For `AGCAUCUUUUAUUGCAUUGGAAAGACUGGCAAAGUCUUUUGGAUGGGUUGGGAGAUGUGGCUGGAAAGUACUUUGGAAAAUAUACAAUCAAGAUAUCUCAUGGCAUAUUA`, “RBNS enrichment (R)” read 0.354.
Under “RBNS enrichment (R)”, `CCCCCUCUCCUUCCUCCCCAGUGAGUUCACUUGCCAUUCGGGCACACUGGGUUAUUUCUCCGUCCUCAUUGUCAUCUAGAACUAGCUUUAGGGUAGUGCCAGACAAACAU` is recorded as 0.884.
`UGAGCUUGCUUGUGUGUGUGUGCGCGUGUGCGUGUGUUGCUCCAAUAAAGUUUGUACACUUUCUGAAUAGUAUCUGAUUUGUUGCGCCAGGGCCCUCUGAUACCAGCAUU`: “RBNS enrichment (R)” 2.33.
Under “RBNS enrichment (R)”, `AGCCCCUCAGCAAGAAAGAAGAGUCAUUGCUGGUUCCCAGGGGCAGUCACAGAGGAUGAAAUACCACAUCAAGGCAGUGGGAACUUCCUGCGACUUCUCCUGGUCCUCCC` is recorded as 0.531.
`AGCCUGUCCCUGAAAGAGAAGAUGGCCAUGCCCUCCAUGUGUAAGAACAAUGCCAGGGCCCAGGAGGACCGCCUGCCCUGCCUGGGCCUUGGCUGGGCCUCUGGUUCUGA` — result for “RBNS enrichment (R)”: 1.77.
Under “RBNS enrichment (R)”, `GCUCCCAUCUCAUUUCCAGAAAGGCUCAUACCUGGCUUGCAGGGAAGCAUCUGUCUUGUCAUUCCAGGUGCCAGAAUCCUCUCAGAGUCAUUGAAGGGUGUUCACCCAUC` is recorded as 0.993.
For `CCCAAGUCUCCUAGACCCCCAGGGAGCCAGUGAACUGUCACCUUCUCUUCAUCACAGAAUGAGUAAAAUCCCUGAACAAAUGCAUUGUGAACCCAUUCCCCACUCCCACC`, “RBNS enrichment (R)” read 0.944.
`CUGGAGCUCUGCUUGCCUGUCCCCACCUCGCUGGAAACCAUCUCGCCAUUAGCGCAACUGAUUUCCCACACUCUGCUCUGGCCUGAACCCUAAUCUUCGCAGCCGCUUGG` — result for “RBNS enrichment (R)”: 1.46.
For `AAAAGAAGGGGGGAAAUGGUCAGUUUAAGCCAAAAGAAACUUUCUAAACAAUGUAUAGGUACACAGCAAAAUUAAACAAAUCCAACAAUUUCUGAAGCUUAGUGUAAUUG`, “RBNS enrichment (R)” read 0.492.
For `CUUGAGGACACUGGGCCCCCAUGGAAUCCCUCCAUGCCCUAGCAUGGCUAAAUGCUGAAGGUGGAGGUUCAGCAUGUCUGACAACCCGGAUGUACACCGUAGAAGUGCCA`, “RBNS enrichment (R)” read 1.68.
`GGGCACUGGCGGUCAAGUGUGGAGGAGAGGGGUGGAGGCUGCCCCAUUGAGAUCUUCCUGCUGAGUCCUUUCCAGGGGCCAAUUUUGGAUGAGCAUGGAGCUGUCACCUC` — result for “RBNS enrichment (R)”: 2.46.

For quick reference, copied from above (series 2):
With `CCTTTTCC` the E-score was -0.0318.
The E-score of `CCTGACAC` is reported as -0.0284.
With `CACCCGTA` the E-score was -0.121.
The E-score of `GCTCAAGA` is reported as -0.0773.
For `AACTCACT`, the E-score was 0.0244.
For `ACACGCCC`, the E-score was 0.0474.
For `AGAGGGCG`, the E-score was 0.14.
`TATATTCA` has an E-score of -0.0173.
`TGGTCACA` has an E-score of 0.144.
`AACTCGCA` has an E-score of 0.146.
